Published values of several laboratories.
Several values in a cell are separate wells, animals, samples, runs or records. Numbers after ± are the reported error.
UniProt P05177, sequence (whole entry, looked up): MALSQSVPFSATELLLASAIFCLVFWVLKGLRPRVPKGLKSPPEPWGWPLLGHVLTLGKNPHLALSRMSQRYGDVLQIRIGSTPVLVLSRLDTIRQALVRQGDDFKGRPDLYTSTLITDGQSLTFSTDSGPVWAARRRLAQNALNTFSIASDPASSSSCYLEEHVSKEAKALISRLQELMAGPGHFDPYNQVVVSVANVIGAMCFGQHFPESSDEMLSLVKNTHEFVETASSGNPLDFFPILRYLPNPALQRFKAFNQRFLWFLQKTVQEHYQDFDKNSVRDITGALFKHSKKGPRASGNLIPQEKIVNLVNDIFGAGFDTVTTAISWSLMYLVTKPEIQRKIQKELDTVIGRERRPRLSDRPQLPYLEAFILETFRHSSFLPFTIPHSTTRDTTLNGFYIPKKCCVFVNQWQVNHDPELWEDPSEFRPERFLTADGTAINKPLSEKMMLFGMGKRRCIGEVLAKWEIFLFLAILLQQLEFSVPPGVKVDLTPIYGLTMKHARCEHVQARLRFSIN
UniProt P45983, sequence (whole entry, looked up): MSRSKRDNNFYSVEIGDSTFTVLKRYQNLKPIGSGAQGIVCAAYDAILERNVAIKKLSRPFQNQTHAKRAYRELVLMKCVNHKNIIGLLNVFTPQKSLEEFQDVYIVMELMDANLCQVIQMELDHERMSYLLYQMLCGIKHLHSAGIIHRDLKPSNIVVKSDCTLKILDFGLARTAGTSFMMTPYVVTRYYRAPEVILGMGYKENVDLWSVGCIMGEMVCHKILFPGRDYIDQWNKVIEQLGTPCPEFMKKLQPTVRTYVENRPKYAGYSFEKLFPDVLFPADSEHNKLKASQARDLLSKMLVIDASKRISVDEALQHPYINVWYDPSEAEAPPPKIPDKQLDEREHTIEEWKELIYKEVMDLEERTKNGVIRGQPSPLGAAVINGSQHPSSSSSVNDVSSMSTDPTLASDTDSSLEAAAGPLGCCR
UniProt P42685, sequence (whole entry, looked up): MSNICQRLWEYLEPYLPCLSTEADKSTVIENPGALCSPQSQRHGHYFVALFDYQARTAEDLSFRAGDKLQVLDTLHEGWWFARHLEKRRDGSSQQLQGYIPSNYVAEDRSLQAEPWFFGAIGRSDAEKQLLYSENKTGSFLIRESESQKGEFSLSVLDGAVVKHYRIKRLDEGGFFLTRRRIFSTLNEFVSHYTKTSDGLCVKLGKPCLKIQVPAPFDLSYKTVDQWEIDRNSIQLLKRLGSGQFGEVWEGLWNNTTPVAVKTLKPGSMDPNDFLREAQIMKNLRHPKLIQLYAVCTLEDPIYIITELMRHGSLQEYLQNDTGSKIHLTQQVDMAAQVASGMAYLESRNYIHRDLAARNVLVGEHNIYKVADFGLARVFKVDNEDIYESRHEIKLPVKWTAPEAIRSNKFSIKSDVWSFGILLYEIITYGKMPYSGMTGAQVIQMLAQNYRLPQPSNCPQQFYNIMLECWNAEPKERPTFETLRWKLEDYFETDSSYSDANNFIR
UniProt P02769, sequence (whole entry, looked up): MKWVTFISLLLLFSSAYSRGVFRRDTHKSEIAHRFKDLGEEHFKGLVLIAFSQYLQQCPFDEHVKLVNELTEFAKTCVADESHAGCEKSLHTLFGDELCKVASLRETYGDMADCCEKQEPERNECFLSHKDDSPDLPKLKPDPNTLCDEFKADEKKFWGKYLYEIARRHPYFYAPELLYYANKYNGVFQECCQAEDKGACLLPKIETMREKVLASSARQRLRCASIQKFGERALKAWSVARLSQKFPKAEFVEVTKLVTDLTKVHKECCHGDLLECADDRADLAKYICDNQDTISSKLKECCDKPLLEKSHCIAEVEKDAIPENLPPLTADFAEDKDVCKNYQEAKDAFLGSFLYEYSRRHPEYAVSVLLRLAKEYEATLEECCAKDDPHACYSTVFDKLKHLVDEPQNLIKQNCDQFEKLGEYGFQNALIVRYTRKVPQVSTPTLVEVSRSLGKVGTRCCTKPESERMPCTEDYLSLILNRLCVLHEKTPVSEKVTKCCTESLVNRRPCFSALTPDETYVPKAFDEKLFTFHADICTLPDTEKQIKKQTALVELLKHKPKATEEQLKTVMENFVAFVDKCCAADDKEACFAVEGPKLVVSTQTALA

CNC(=O)C1CCCN(C(=O)C2CC3CCC2N3C(=O)[C@@H]2C[C@@H](O)CN2C(=O)NCc2cccc(Cl)c2F)C1 (mixture of isomers)  remaining activity (Cytochrome P450 1A2 (CYP1A2, Homo sapiens, UniProt P05177); preincubation without NADPH; human; 0.206 µM; relative to: negative control): 90.5% and 92.8%
COc1cccc(OC)c1-c1cc(C(=O)NC2(C(=O)O)C3CC4CC(C3)CC2C4)nn1-c1ccc(C(=O)N(C)CCOCCN(C)C(=O)[C@H](CCCCNC(=O)[C@H](CC(C)C)NC(=O)C2OC2C(=O)O)NC(=O)CN2CCN(CC(=O)[O-])CCN(CC(=O)[O-])CCN(CC(=O)[O-])CC2)cc1C(C)C.[177Lu+3] (mixture of isomers)  tracer uptake (HT-29 tumour model; host not given, stomach; 24 h, tumour-bearing): 0.2 %ID/g
CN1CCCNC(=O)c2cccc(c2)C(=O)NCCCN(C)CCCNc2cccc3c2C(=O)c2cccc(c2C3=O)NCCC1  log2 fold change (SAS; RNA-seq, refers to: MT-CO3 mRNA; 1 µM, 6 h; relative to: untreated cells): -2.21
Nc1nc(-c2ccccc2)nc2[nH]nc(Nc3ccc(O)cc3)c12  CC50 (HeLa Ohio; 72 h): > 157 µM
N#C[C@@H]1CC(F)(F)CN1C(=O)CNC(=O)c1ccnc2c(NC(=O)CCOCCOCCOCCOCCOCCOCCNC(=O)[C@H](CCCCNC(=O)CN3CCN(CC(=O)[O-])CCN(CC(=O)[O-])CCN(CC(=O)[O-])CC3)NC(=O)CCCc3ccc(I)cc3)cccc12.[177Lu+3]  tracer uptake (U-87 MG tumour model; host not given, heart; 48 h, tumour-bearing): 0.14 %ID/g
Nc1nc(-c2ccccc2)nc2[nH]nc(Nc3cc(F)ccc3F)c12  CC50 (HeLa Ohio; 72 h): > 148 µM
Cc1ncsc1-c1ccc(C(C)NC(=O)C2CC(O)CN2C(=O)C(NC(=O)CCCCCCCCCCN2CCCC(Nc3ncc(Cl)c(Nc4ccccc4S(=O)(=O)C(C)C)n3)C2)C(C)(C)C)cc1 (stereo not drawn)  log2 fold change (22Rv1; RNA-seq, refers to: TMEM63C mRNA; concentration not given; relative to: DMSO): -1.22
CN(C)c1ccc2c(c1)C(C)(C)c1cc(N(C)C)ccc1C21OC(=O)c2ccc(C(=O)O)cc21  Kd (Albumin (ALB, Bos taurus, UniProt P02769); binding, fluorescence titration; PBS): 51 ± 5 µM
O=C([O-])CN1CCN(CC(=O)[O-])CCN(Cc2cccc(C(=O)[O-])n2)CC1.[18F-].[Sc+3]  tracer uptake (mouse, heart; intravenous, 1 h): 0.26 %ID/g
N#C[C@@H]1CC(F)(F)CN1C(=O)CNC(=O)c1ccnc2c(NC(=O)[C@@H](N)CCCCNC(=O)CCOCCOCCOCCOCCOCCOCCNC(=O)CN3CCN(CC(=O)[O-])CCN(CC(=O)[O-])CCN(CC(=O)[O-])CC3)cccc12.[177Lu+3]  tracer uptake (U-87 MG tumour model; host not given, blood; 48 h, tumour-bearing): 0.11 %ID/g
CNS(=O)(=O)Nc1nccc(Cc2c(C)c3ccc(Oc4ncccc4F)cc3oc2=O)c1F  IC50 (LS-513; cell viability; 7 days): 0.00848 µM
CN(Cc1ccccc1)C(=O)CN1CCN(CC(=O)[O-])CCN(CC(=O)N(C)Cc2ccccc2)CC1.[18F-].[Sc+3]  tracer uptake (mouse, lung; intravenous, 1 h): 0.18 %ID/g
N#C[C@@H]1CCCN1C(=O)CNC(=O)c1ccnc2ccc(OCCCN3CCN(C(=O)CCc4ccc(O)c(CN5CCN6CC(=O)[O][Al-]([18F])([O]C(=O)C5)[O]c5ccc(CCC(=O)N7CCN(CCCOc8ccc9nccc(C(=O)NCC(=O)N%10CCC[C@H]%10C#N)c9c8)CC7)cc5C6)c4)CC3)cc12 (stereo partly drawn)  tracer uptake (U-87 MG tumour model; host not given, pancreas; 2 h, tumour-bearing): 2.24 %ID/g
CN(Cc1ccccc1)C(=O)CN1CCN(CC(=O)[O-])CCN(Cc2cccc(C(=O)[O-])n2)CC1.[18F-].[Sc+3]  tracer uptake (mouse, lung; intravenous, 1 h): 0.23 %ID/g
CCCC[C@H](NC(=O)COCCOCCNC(=O)CN1CCN(CC(=O)O)CCN(CC(=O)O)CC1)C(=O)N[C@H]1CC(=O)NCCCC[C@@H](C(N)=O)NC(=O)[C@H](Cc2c[nH]c3ccccc23)NC(=O)[C@H](CCCNC(=N)N)NC(=O)[C@@H](Cc2ccccc2)NC(=O)[C@H](Cc2c[nH]cn2)NC1=O [technetium-99m labelled]  tissue uptake (C57 mouse, kidneys; intravenous, 0.037 MBq, 0.5 h): 9.9 ± 0.94 %ID/g
CC(C)OCCOCc1ccc(OCC(O)CN(N=O)C(C)C)cc1 (stereo not drawn)  revertant fold increase (Salmonella typhimurium; Ames test; TA98; 500 µg/plate, without metabolic activation; relative to: solvent control): 0.8 fold
CCCC[C@H](NC(=O)CCCCCCCNC(=O)CN1CCN(CC(=O)O)CCN(CC(=O)O)CC1)C(=O)N[C@H]1CC(=O)NCCCC[C@@H](C(N)=O)NC(=O)[C@H](Cc2c[nH]c3ccccc23)NC(=O)[C@H](CCCNC(=N)N)NC(=O)[C@@H](Cc2ccccc2)NC(=O)[C@H](Cc2c[nH]cn2)NC1=O [technetium-99m labelled]  tissue uptake (C57 mouse, brain; intravenous, 0.037 MBq, 2 h): 0.02 ± 0.01 %ID/g
Cc1ccc(Nc2n[nH]c3nc(-c4ccccn4)nc(N)c23)cc1  CC50 (HeLa Ohio; 72 h): > 158 µM
OC(Cc1cc(-c2ccc(C(O)C(F)(F)F)s2)sc1-c1ccc(-c2sc(-c3ccc(C(O)C(F)(F)F)s3)cc2CC(O)C(F)(F)F)s1)C(F)(F)F (stereo not drawn)  amount in extracellular wash (primary human fetal neurons; LC-MS/MS; 4 µM, 120 min, replicate 3): 0.01 nmol and 0.02 nmol
Nc1nc(-c2ccccc2)nc2[nH]nc(Nc3cccc(Cl)c3)c12  CC50 (HeLa Ohio; 72 h): > 148 µM
CC(C)Cc1ccc(C(C)C(=O)N[C@@H](CCCCNC(=O)CCOCCOCCOCCOCCOCCOCCNC(=O)CN2CCN(CC(=O)[O-])CCN(CC(=O)[O-])CCN(CC(=O)[O-])CC2)C(=O)Nc2cccc3c(C(=O)NCC(=O)N4CC(F)(F)C[C@H]4C#N)ccnc23)cc1.[177Lu+3] (stereo partly drawn)  tracer uptake (U-87 MG tumour model; host not given, pancreas; 24 h, tumour-bearing): 1.29 %ID/g
CC(C)=CCc1cc(C(=O)/C=C/c2ccc(O)cc2)c(O)cc1O  Km (phase I metabolism, substrate; monkey liver microsomes): 13 ± 2.27 µM
Nc1nc(-c2cccc(C(F)(F)F)c2)nc2[nH]nc(Nc3ccccc3)c12  CC50 (HeLa Ohio; 72 h): 13.2 µM
CN(Cc1ccccc1)C(=O)CN1CCN(CC(=O)[O-])CCN(CC(=O)[O-])CC1.[44Sc+3]  uptake (BALB/c mouse, urine; intravenous, 1 h): 356 ± 248 %ID/g
Cc1nn(-c2cccc(N)c2)c(=O)c2cnc(Nc3ccc(N4CCNCC4)cc3)nc12  IC50 (FRK (Homo sapiens, UniProt P42685); enzyme activity, inhibitor): > 10 µM
CCN(CC)CC(=O)Nc1cccc(-n2cc(-c3ccc4ccc(-c5cn(-c6cccc(NC(=O)CN(CC)CC)c6)nn5)cc4c3)nn2)c1  fold regulation (RCC4; PCR angiogenesis array, refers to: BAI1; 5 x IC50, 2 h, normoxia; relative to: untreated): -1.09
Nc1nc(-c2ccccc2)nc2[nH]nc(Nc3cccc(F)c3F)c12  CC50 (HeLa Ohio; 72 h): > 148 µM
COC1CN([C@H]2CC[C@H]([C@@]3(C)Oc4c(Cl)cc(C(=O)NCc5c(SC)cc(C)[nH]c5=O)c(C)c4O3)CC2)C1  log2 fold change (RNA-seq, refers to: PCDH17 mouse homolog; mouse, HT-1376 xenograft, whole blood; dose not given; relative to: vehicle): 1.65
COc1cccc(OC)c1-c1cc(C(=O)NC2(C(=O)O)C3CC4CC(C3)CC2C4)nn1-c1ccc(C(=O)N(C)CCOCCOCCN(C)C(=O)[C@H](CCCCNC(=O)[C@H](CC(C)C)NC(=O)C2OC2C(=O)O)NC(=O)CN2CCN(CC(=O)[O-])CCN(CC(=O)[O-])CCN(CC(=O)[O-])CC2)cc1C(C)C.[177Lu+3] (mixture of isomers)  tracer uptake (HT-29 tumour model; host not given, pancreas; 7 days, tumour-bearing): 0.17 %ID/g
Nc1ncc(-c2cc(-c3cnn(CC(F)(F)F)c3)ncc2F)nc1C(=O)NC1CNCC(F)C1 (stereo not drawn)  remaining binding (CSNK2A1; KINOMEscan; 1 µM; relative to: DMSO control): 100%
C=CC(=O)Nc1cccc(Cn2ncc3cnc(Nc4cnn(CCOC)c4)nc32)c1  percent of control (FLT3 human; binding, KINOMEscan; 100 nM; lower = stronger binding): 12%
Cc1ccc(-c2nc(N)c3c(Nc4ccc(F)cc4)n[nH]c3n2)cc1F  CC50 (HeLa Ohio; 72 h): 14.5 µM
COC(=O)[C@]1(Cc2ccccc2)C=C(C(=O)OC(C)(C)C)C(=O)CC1  fraction bound (MAPK8 (Homo sapiens, UniProt P45983); D-peptide binding, inhibitor, FP peptide displacement; 7.812 µM; lower is stronger displacement): 0.571
CN(C)C=Nc1nc(-c2ccccc2)nc2c1c(Nc1ccc(F)cc1)nn2C  CC50 (HeLa Ohio; 72 h): > 128 µM
O=C1C2CC3CC1CC(C(=O)N1CCN(c4ccc([N+](=O)[O-])c5ncccc45)CC1)(C3)C2  revertant fold increase (Escherichia coli; Ames test; WP2 uvrA pKM101; 0.31 µg/well, with S9; relative to: vehicle): 1
CCN(CC)CC#CCNc1ccnc2cc(Cl)ccc12  revertants per well (Salmonella typhimurium; mini-Ames test; TA1535; 250.0 µg/well, with rat liver S9): 2

Some of these lines once more:
CCN(CC)CC#CCNc1ccnc2cc(Cl)ccc12  revertants per well (Salmonella typhimurium; mini-Ames test; TA1535; 250.0 µg/well, with rat liver S9): 2
Nc1nc(-c2ccccc2)nc2[nH]nc(Nc3cc(F)ccc3F)c12  CC50 (HeLa Ohio; 72 h): > 148 µM
Cc1nn(-c2cccc(N)c2)c(=O)c2cnc(Nc3ccc(N4CCNCC4)cc3)nc12  IC50 (FRK (Homo sapiens, UniProt P42685); enzyme activity, inhibitor): > 10 µM
